Measurements pooled from the literature.
Lines come from different studies, so protocols differ.

| Structure (SMILES) | organism | test | test system | conditions | MIC |
| --- | --- | --- | --- | --- | --- |
| CCCCCCCCCCCCCC(=O)N[C@H]1C(=O)N[C@@H](CN)C(=O)N[C@@H](CO)C(=O)N[C@@H](Cc2ccc(O)cc2)C(=O)O[C@H]1C | Staphylococcus aureus | – | SH1000 | added: sphingomyelin, molar ratio 1 | 2 µg/mL |
| COc1ccc(C2=[N+]([O-])c3ccccc3N3CCCN=C23)cc1 | Prevotella spp. | – | – | – | 0.125 to 2 µg/mL |
| CC(C)CCCCCCCCC/C=C/C(=O)N[C@@H](CC(=O)O)C(=O)N[C@H]1CNC(=O)[C@@H]2CCCN2C(=O)[C@H](C(C)C)NC(=O)[C@@H](CN)NC(=O)CNC(=O)[C@H](CC(=O)O)NC(=O)CNC(=O)[C@H](CC(=O)O)NC(=O)[C@H](CC(=O)O)NC(=O)[C@H]2CCCCN2C1=O | Enterococcus faecium | broth microdilution | daptomycin-resistant isolate, Mueller-Hinton broth, Mg2+ 10 mg/L | 16 h, added: Ca2+ 0 mM | > 128 µg/mL |
| CC(=O)N[C@@H](CC(C)C)C(=O)N[C@H]1CSSC[C@@H](C(=O)N2CCC[C@H]2C(N)=O)NC(=O)[C@H](CCCCN)NC(=O)[C@H](C(C)C)NC(=O)[C@H](CCCCN)NC(=O)CNC(=O)[C@H](CC(C)C)NC(=O)[C@H](Cc2ccccc2)NC(=O)[C@H](CCCCN)NC(=O)[C@H](CC(C)C)NC(=O)[C@H](CCC(=O)O)NC(=O)[C@H](Cc2ccccc2)NC(=O)[C@H](CCCNC(=N)N)NC(=O)[C@H](CCCCN)NC(=O)[C@H](CC(C)C)NC(=O)[C@H](CC(=O)O)NC(=O)[C@@H]2CCCN2C(=O)[C@H](CCCCN)NC(=O)[C@H](C(C)C)NC(=O)[C@H](CCCCN)NC(=O)[C@H](CCCCN)NC(=O)[C@H](CCCCN)NC1=O | Pseudomonas fluorescens | broth dilution | CGMCC strain | 24 h | 1.25 to 2.5 µM |
| C[N+]1=C2C(c3ccccc3)=[N+]([O-])c3ccccc3N2CCC1 | Prevotella spp. | – | – | – | 1 to 8 µg/mL |
| CC(C)C[C@@H](NC(=O)[C@@H](CC(C)C)NC(=O)[C@@H](CCCCN)NC(=O)[C@@H](CCCCNC(=O)[C@@H](CC(C)C)NC(=O)[C@@H](CC(C)C)NC(=O)[C@@H](CCCCNC(=O)[C@@H](CC(C)C)NC(=O)[C@@H](CCCCN)NC(=O)[C@@H](CCCCNC(=O)[C@@H](CC(C)C)NC(=O)[C@H](N)CCCCN)NC(=O)[C@@H](CC(C)C)NC(=O)[C@H](N)CCCCN)NC(=O)[C@@H](CC(C)C)NC(=O)[C@@H](CCCCN)NC(=O)[C@@H](CCCCNC(=O)[C@@H](CC(C)C)NC(=O)[C@H](N)CCCCN)NC(=O)[C@@H](CC(C)C)NC(=O)[C@H](N)CCCCN)NC(=O)[C@@H](CC(C)C)NC(=O)[C@@H](CC(C)C)NC(=O)[C@@H](CCCCNC(=O)[C@@H](CC(C)C)NC(=O)[C@@H](CCCCN)NC(=O)[C@@H](CCCCNC(=O)[C@@H](CC(C)C)NC(=O)[C@H](N)CCCCN)NC(=O)[C@@H](CC(C)C)NC(=O)[C@H](N)CCCCN)NC(=O)[C@@H](CC(C)C)NC(=O)[C@@H](CCCCN)NC(=O)[C@@H](CCCCNC(=O)[C@@H](CC(C)C)NC(=O)[C@H](N)CCCCN)NC(=O)[C@@H](CC(C)C)NC(=O)[C@H](N)CCCCN)C(N)=O | Enterobacter cloacae | broth microdilution | blaNDM | 20 h, 37 °C | 16 µg/mL |
| CC1(C)C(NC(=O)C(=NOC2(C(=O)O)CC2)c2csc(N)n2)C(=O)N1OS(=O)(=O)O (stereo not shown) | Enterobacter cloacae | – | ATCC 2468, NDM-positive | compound alone | 4 µg/mL |
| CC[C@H](C)[C@@H]1NC(=O)[C@H](CC(C)C)NC(=O)[C@@H](NC(=O)[C@H](CCC(N)=O)NC(=O)[C@H](CCCCN)NC(=O)[C@H](CC(N)=O)NC(=O)[C@H](Cc2ccc(O)cc2)NC(=O)[C@@H]2CCC(=O)NCC(=O)NCC(=O)NCC(=O)NCC(=O)N[C@@H](CCCNC(=N)N)C(=O)NCC(=O)N[C@@H](Cc3ccc(O)cc3)C(=O)N2)CSSC[C@@H](C(=O)O)NC(=O)[C@H](Cc2ccccc2)NC1=O | Streptococcus pyogenes | broth microdilution | sensitive clinical isolate | overnight, 37 °C | > 128 µg/mL |
| CC1(C)S[C@@H]2[C@H](NC(=O)[C@H](NC(=O)C3=C(O)C(c4ccccc4F)NC3=O)c3ccccc3)C(=O)N2[C@H]1C(=O)O (stereo partly shown) | Escherichia coli | broth microdilution | Keio mutant JW0587-1 | 18 h, enterobactin-related gene | 25 µg/mL |
| C=C(NC(=O)c1csc(-c2nc3c(cc2O)-c2nc(cs2)C(=O)NC(C(C)O)C(=O)NC(=C(C)OC)c2nc(cs2)C(=O)NC2c4nc(cs4)C(=O)NC(COC(=O)c4c5c6c(cccc6n4O)COC(=O)C(OC4CC(C)(O)C(N(C)C)C(C)O4)C2OC5)c2nc-3cs2)n1)C(N)=O (stereo not shown) | Staphylococcus aureus | – | MRSA strain 2, vancomycin-induced | 20 generations | 0.0156 µg/mL |
| OB(O)c1ccc(OCc2ccccc2)nc1F | Enterobacter cloacae | bacterial growth | AmpC overproducer clinical isolate | without cefotaxime | > 2050 µg/mL |
| CC[C@H](C)[C@H](NC(=O)[C@H](CCCNC(=N)N)NC(=O)[C@H](CO)NC(=O)[C@H](Cc1ccc(O)cc1)NC(=O)[C@@H](NC(=O)[C@@H](NC(=O)[C@H](C)NC(=O)CNC(=O)[C@H](CCCCN)NC(=O)[C@H](CCCCN)NC(=O)CCNC(=O)CCCCCNC(=O)[C@H](CCCNC(=N)N)NC(=O)CCCCCNC(=O)[C@H](CCCNC(=N)N)NC(=O)[C@H](CCCNC(=N)N)NC(=O)CCCCCNC(=O)[C@H](CCCNC(=N)N)NC(=O)[C@H](CCCNC(=N)N)NC(=O)CCCCCNC(=O)[C@H](CCCNC(=N)N)NC(=O)[C@H](CCCNC(=N)N)NC(=O)CCCCCNC(=O)[C@@H](N)CCCNC(=N)N)C(C)C)[C@@H](C)O)C(=O)N[C@@H](CO)C(=O)NCC(=O)N[C@@H](CCC(N)=O)C(=O)N[C@@H](Cc1ccc(O)cc1)C(=O)N[C@@H](CCCCN)C(=O)O | Escherichia coli | – | ATCC 25922, Mueller-Hinton broth | added: ZnCl2 8 µM | 6 µM |
| CC[C@H](C)[C@H](NC(=O)[C@H](C)NC(=O)CNC(=O)[C@H](C)NC(=O)[C@H](CCCCN)NC(=O)[C@H](CO)NC(=O)[C@H](C)NC(=O)[C@H](CCSC)NC(=O)CN)C(=O)N[C@@H](C)C(=O)NCC(=O)N[C@@H](CCCCN)C(=O)N[C@H](C(=O)N[C@@H](C)C(=O)N[C@@H](CCCCN)C(=O)N[C@H](C(=O)N[C@@H](C)C(=O)N[C@@H](CC(C)C)C(=O)N[C@@H](CCCCN)C(=O)N[C@@H](C)C(=O)N[C@@H](CC(C)C)C(N)=O)C(C)C)[C@@H](C)CC | Escherichia coli | – | 0370, ampicillin-resistant, minimal salts medium | 18 h, 37 °C | 2.5 µg/mL |
| [O-][N+]1=C(c2ccccc2)C2=NCCCN2c2ncccc21 | Prevotella spp. | – | – | – | 0.06 to 0.125 µg/mL |
| CC(=O)N[C@@H](CC(C)C)C(=O)N[C@H]1CSSC[C@@H](C(=O)N2CCC[C@H]2C(N)=O)NC(=O)[C@H]([C@@H](C)O)NC(=O)[C@H](C(C)C)NC(=O)[C@H]([C@@H](C)O)NC(=O)CNC(=O)[C@H](CC(C)C)NC(=O)[C@H](Cc2ccccc2)NC(=O)[C@H](Cc2ccc(O)cc2)NC(=O)[C@H](CC(C)C)NC(=O)[C@H](CCCCN)NC(=O)[C@H](Cc2ccccc2)NC(=O)[C@H](CCCNC(=N)N)NC(=O)[C@H](CCCCN)NC(=O)[C@H](CC(C)C)NC(=O)[C@H](CCCCN)NC(=O)[C@@H]2CCCN2C(=O)[C@H](CCCCN)NC(=O)[C@H](C(C)C)NC(=O)[C@H](CC(N)=O)NC(=O)[C@H](Cc2ccc(O)cc2)NC(=O)[C@H]([C@@H](C)O)NC1=O | Pseudomonas fluorescens | broth dilution | CGMCC strain | 24 h | 1.25 to 2.5 µM |
| CC(C)CCCCCCCCC/C=C/C(=O)N[C@@H](CC(N)=O)C(=O)N[C@H]1CNC(=O)[C@@H]2CCCN2C(=O)[C@H](C(C)C)NC(=O)[C@@H](CN)NC(=O)CNC(=O)[C@H](CC(=O)O)NC(=O)CNC(=O)[C@H](CC(=O)O)NC(=O)[C@H](CC(=O)O)NC(=O)[C@H]2CCCCN2C1=O | Enterococcus faecium | broth microdilution | daptomycin-resistant isolate, Mueller-Hinton broth, Mg2+ 10 mg/L | 16 h, added: Ca2+ 5 mM | 2 µg/mL |

Excerpt of the above:
| Structure (SMILES) | organism | test | test system | conditions | MIC |
| --- | --- | --- | --- | --- | --- |
| C=C(NC(=O)c1csc(-c2nc3c(cc2O)-c2nc(cs2)C(=O)NC(C(C)O)C(=O)NC(=C(C)OC)c2nc(cs2)C(=O)NC2c4nc(cs4)C(=O)NC(COC(=O)c4c5c6c(cccc6n4O)COC(=O)C(OC4CC(C)(O)C(N(C)C)C(C)O4)C2OC5)c2nc-3cs2)n1)C(N)=O (stereo not shown) | Staphylococcus aureus | – | MRSA strain 2, vancomycin-induced | 20 generations | 0.0156 µg/mL |
